Experimental data pooled from the literature.
Each numbered part is a random draw from the data of one study; scales do not carry over between parts.

Set 1 — technique: Sort-seq; item: YFP reporter; sample: E. coli; setting: PhoQ-PhoP variant library; together with: 10 µM Mg2+; reference: high Mg2+ state; reading: higher = stronger signaling
Substance: PhoQ, residues 284 288 289 292 302 303 ALASRC
For PhoP, residues 12 14 15 18 19 HHYTI (Escherichia coli, UniProt P23836): fold induction read 11.6.
The fold induction was 10.5 (PhoP, residues 12 14 15 18 19 SFCSL (Escherichia coli, UniProt P23836)).
It gave 19.7 for fold induction (PhoP, residues 12 14 15 18 19 AYFRS (Escherichia coli, UniProt P23836)).

Set 2 — technique: universal PBM; molecule type: double-stranded DNA, one strand shown; sample: in vitro; tested at: 600 nM; reading: higher = stronger binding
Target: Sal-like protein 4, full length isoform A (SALL4, Homo sapiens, UniProt Q9UJQ4, residues 1-1053)
UniProt Q9UJQ4, sequence (whole entry, looked up): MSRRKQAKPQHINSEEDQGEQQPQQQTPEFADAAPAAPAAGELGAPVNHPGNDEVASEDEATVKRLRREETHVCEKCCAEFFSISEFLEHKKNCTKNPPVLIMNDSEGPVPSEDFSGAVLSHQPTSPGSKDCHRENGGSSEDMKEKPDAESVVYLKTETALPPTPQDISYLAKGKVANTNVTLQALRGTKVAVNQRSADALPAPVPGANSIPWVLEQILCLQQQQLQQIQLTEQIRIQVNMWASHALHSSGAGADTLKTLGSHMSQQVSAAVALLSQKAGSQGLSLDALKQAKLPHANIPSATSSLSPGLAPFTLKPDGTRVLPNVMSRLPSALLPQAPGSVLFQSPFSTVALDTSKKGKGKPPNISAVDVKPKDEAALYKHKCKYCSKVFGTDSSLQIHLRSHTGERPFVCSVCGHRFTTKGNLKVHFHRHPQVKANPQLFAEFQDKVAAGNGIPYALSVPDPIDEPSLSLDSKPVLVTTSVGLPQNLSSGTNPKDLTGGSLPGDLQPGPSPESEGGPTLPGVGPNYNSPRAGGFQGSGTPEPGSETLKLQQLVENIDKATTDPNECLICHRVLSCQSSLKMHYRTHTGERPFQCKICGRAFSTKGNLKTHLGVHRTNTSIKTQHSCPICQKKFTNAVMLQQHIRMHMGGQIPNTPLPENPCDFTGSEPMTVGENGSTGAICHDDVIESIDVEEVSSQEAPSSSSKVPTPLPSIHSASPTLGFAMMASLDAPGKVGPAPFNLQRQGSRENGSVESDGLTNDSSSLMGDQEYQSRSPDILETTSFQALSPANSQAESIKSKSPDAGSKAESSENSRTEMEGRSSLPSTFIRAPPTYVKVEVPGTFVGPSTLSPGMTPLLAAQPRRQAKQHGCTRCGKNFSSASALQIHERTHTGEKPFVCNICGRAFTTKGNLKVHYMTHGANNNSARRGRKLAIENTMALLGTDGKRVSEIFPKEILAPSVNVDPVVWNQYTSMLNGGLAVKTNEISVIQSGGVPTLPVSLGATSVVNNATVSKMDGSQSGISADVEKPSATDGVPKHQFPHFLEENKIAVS
Setting: 8-mer, flanks averaged, mean of replicates
`CTGCATCC` gave an E-score of -0.231.
For `ATAAAAAG`, the E-score was 0.312.
`AGGCCTTC` gave an E-score of -0.0471.
`ACGGTAGT` has an E-score of -0.0208.
With `AAGCACTG` the E-score was 0.127.
For `CTTGTACA`, the E-score was 0.157.
The E-score of `ACCCGTTG` is reported as -0.311.
With `ACGACCAT` the E-score was -0.0895.
With `CAATACTA` the E-score was 0.113.

Set 3 — technique: RNA Bind-n-Seq; molecule type: RNA; sample: in vitro; tested at: 200 nM; setting: whole 134-nt RNA, ends assumed; together with: 150 mM LiCl; reference: input library; reading: higher = stronger binding; all molecules: 7-deaza-guanosine replaces G
Target: Fragile X messenger ribonucleoprotein 1, C-terminal low-complexity region (Fmr1, Mus musculus, UniProt P35922)
`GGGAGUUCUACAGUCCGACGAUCCUCAAGUCCUGUGCUACACAUCGUAUGUACCGAAUCGGGGCGGGCGGGCGGGGAAAGUAUUAUGUUACGCCGUUCGGAUCUGCACUUCCAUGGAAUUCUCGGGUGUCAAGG` has a log2 enrichment of -0.259.
For `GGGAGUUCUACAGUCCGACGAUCUCCUGUGCUACACAUCGUAUGUACCGAAUCGGGAAAAAAGGGGAAAAAAGGAAAAAAGGAAAGUAUUAUGUUACGCCGUUCGGAUCUGCAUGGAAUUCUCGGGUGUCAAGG`, the log2 enrichment was -0.268.
With `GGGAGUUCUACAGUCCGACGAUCACCAUGCAGGUGGGCAUCUUUGGGAAGUAGGGCAAGGGGGGGAUAGGGAGGGGGGUAACACUUUGGGAACAGGUGGUCCCAGGUCGUUUCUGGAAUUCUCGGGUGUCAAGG` the log2 enrichment was 1.43.
`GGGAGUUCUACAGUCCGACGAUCCCUGUGCUACACAUCGUAUGUACCGAAUCGGGAAAAAAGGGGAAAAAAGGGGAAAAAAGGGAAAGUAUUAUGUUACGCCGUUCGGAUCUGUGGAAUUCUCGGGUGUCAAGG` has a log2 enrichment of 0.397.
`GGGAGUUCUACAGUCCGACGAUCUGAAGCGAGAAGCUGCCCUACCCCCAGUGAGCCCCCUGAAGGCGGCUCUCUCUGAGGAGGAGUUAGAGAAGAAAUCCAAGGCUAUCAUUGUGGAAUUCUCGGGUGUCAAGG` gave a log2 enrichment of -0.372.
`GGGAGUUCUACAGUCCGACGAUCUGGCCCUGGUGGCAUGCGGGGAGGAAGAGGUGGCCUCAUGGACCGUGGUGGUCCCGGUGGAAUGUUCAGAGGUGGCCGUGGUGGAGACAGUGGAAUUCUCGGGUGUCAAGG` has a log2 enrichment of -0.83.
`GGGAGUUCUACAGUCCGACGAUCGCAGGAAGUAAAAACAAAUGGAAAUGCUUCGGAUAGUGACAGGGGUGGGGGUUGCUAAGGAAAGGGUGGGAUGGGAGUGGGUAAAGAGUUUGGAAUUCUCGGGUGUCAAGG` has a log2 enrichment of 1.36.
`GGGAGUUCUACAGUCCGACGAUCUUCCUCAAGUCCUGUGCUACACAUCGUAUGUACCGAAUCGGUGGUGGUGGAAAGUAUUAUGUUACGCCGUUCGGAUCUGCACUUCCAGCAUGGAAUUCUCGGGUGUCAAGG` has a log2 enrichment of 0.345.
`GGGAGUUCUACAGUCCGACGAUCCUCAAGUCCUGUGCUACACAUCGUAUGUACCGAAUCGGGUUUGGGAGGGAGGGAAAGUAUUAUGUUACGCCGUUCGGAUCUGCACUUCCAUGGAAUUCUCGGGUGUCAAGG` has a log2 enrichment of -0.548.
For `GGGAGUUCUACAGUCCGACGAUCACCAUGCAGGUGGGCAUCUUUGGGAAGUGGGGCAAGGGGGGGAUAGGGAGGGGGGUAUCACUUUGGGAACAGGUGGUCCCAGGUCGUUUCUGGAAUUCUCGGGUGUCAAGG`, the log2 enrichment was 1.47.
`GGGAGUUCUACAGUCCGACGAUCUGUGCUACACAUCGUAUGUACCGAAUCGGAAAAAAAGGGGAAAAAAAGGGGAAAAAAAGGGGAAAGUAUUAUGUUACGCCGUUCGGAUCUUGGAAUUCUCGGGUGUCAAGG` gave a log2 enrichment of 0.476.

Set 4 — technique: protein-binding microarray; molecule type: double-stranded DNA, one strand shown; sample: in vitro; tested at: not given; reading: higher = stronger binding
Target: Max-binding protein MNT, bHLH-zipper, MAX partner unstated (MNT, Homo sapiens, UniProt Q99583, residues 220-300)
Setting: k-mer, scored over probes, only values ≥0.25
Construct (chain): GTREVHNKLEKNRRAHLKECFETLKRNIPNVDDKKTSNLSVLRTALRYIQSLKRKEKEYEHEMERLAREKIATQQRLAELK
`CCCTCCCA` has an E-score of 0.316.
`ATGGTCAC` gave an E-score of 0.316.
`ACCCACAC` has an E-score of 0.267.
The E-score of `CCACCCGC` is reported as 0.289.
With `CCATGCCC` the E-score was 0.287.
The E-score of `CCACCCAC` is reported as 0.32.
`CTCGTGGA` gave an E-score of 0.42.
`GCCACGCA` has an E-score of 0.35.
The E-score of `AACACGCG` is reported as 0.454.

Repeated from above (set 3):
`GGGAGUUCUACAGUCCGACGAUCUGGCCCUGGUGGCAUGCGGGGAGGAAGAGGUGGCCUCAUGGACCGUGGUGGUCCCGGUGGAAUGUUCAGAGGUGGCCGUGGUGGAGACAGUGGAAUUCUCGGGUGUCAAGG` has a log2 enrichment of -0.83.
With `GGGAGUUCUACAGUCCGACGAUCACCAUGCAGGUGGGCAUCUUUGGGAAGUAGGGCAAGGGGGGGAUAGGGAGGGGGGUAACACUUUGGGAACAGGUGGUCCCAGGUCGUUUCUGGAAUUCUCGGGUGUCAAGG` the log2 enrichment was 1.43.
`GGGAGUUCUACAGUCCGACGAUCUGAAGCGAGAAGCUGCCCUACCCCCAGUGAGCCCCCUGAAGGCGGCUCUCUCUGAGGAGGAGUUAGAGAAGAAAUCCAAGGCUAUCAUUGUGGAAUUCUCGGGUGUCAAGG` gave a log2 enrichment of -0.372.
For `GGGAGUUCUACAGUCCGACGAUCUCCUGUGCUACACAUCGUAUGUACCGAAUCGGGAAAAAAGGGGAAAAAAGGAAAAAAGGAAAGUAUUAUGUUACGCCGUUCGGAUCUGCAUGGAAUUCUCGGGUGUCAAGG`, the log2 enrichment was -0.268.
`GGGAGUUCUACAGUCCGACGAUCCCUGUGCUACACAUCGUAUGUACCGAAUCGGGAAAAAAGGGGAAAAAAGGGGAAAAAAGGGAAAGUAUUAUGUUACGCCGUUCGGAUCUGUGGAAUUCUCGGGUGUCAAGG` has a log2 enrichment of 0.397.
